{"data": "Measured values of several laboratories", "target": "Solute carrier organic anion transporter family member 1B1 (SLCO1B1, Homo sapiens, UniProt Q9Y6L6)", "Residues used in one study (Q9Y6L6 1-691)": "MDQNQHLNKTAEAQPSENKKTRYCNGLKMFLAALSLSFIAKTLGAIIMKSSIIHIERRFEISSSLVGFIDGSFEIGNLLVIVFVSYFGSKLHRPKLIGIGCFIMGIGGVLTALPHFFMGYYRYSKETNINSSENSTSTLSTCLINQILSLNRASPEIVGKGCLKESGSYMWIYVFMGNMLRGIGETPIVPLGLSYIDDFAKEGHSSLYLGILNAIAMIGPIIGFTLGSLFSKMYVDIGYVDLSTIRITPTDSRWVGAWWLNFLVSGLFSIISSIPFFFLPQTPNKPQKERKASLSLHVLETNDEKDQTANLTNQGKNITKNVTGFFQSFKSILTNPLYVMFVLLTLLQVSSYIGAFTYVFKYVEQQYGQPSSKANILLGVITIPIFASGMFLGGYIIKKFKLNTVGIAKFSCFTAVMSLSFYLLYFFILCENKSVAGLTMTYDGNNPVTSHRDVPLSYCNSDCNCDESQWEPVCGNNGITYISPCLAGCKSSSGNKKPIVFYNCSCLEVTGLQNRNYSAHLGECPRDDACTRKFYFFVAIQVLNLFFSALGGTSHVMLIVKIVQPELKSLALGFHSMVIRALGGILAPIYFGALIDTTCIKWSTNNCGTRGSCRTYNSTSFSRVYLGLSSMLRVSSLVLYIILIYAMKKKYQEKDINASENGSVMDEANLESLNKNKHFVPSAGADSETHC", "note": "Lines come from different studies, so protocols differ. ± gives the spread as reported."}
{"Structure (SMILES)": "CO[C@H]1/C=C/O[C@@]2(C)Oc3c(C)c(O)c4c(O)c(c(/C=N/N5CCN(C)CC5)c(O)c4c3C2=O)NC(=O)/C(C)=C\\C=C\\[C@H](C)[C@H](O)[C@@H](C)[C@@H](O)[C@@H](C)[C@H](OC(C)=O)[C@@H]1C", "test": "transport, inhibitor", "system": "HEK293 overexpressing SLCO1B1", "conditions": "100 µM, with: estradiol-17β-glucuronide", "scale": "reference: vehicle", "endpoint": "remaining activity", "result": "0.93 ± 0.83%"}
{"Structure (SMILES)": "C[C@]12CC[C@@H]3c4ccc(O)cc4CC[C@H]3[C@@H]1CC[C@@H]2O[C@@H]1O[C@H](C(=O)O)[C@@H](O)[C@H](O)[C@H]1O", "test": "transporter uptake, substrate", "endpoint": "Km", "result": "12.8 µM"}
{"Structure (SMILES)": "CO[C@H]1/C=C/O[C@@]2(C)Oc3c(C)c(O)c4c(O)c(c(/C=N/N5CCN(C)CC5)c(O)c4c3C2=O)NC(=O)/C(C)=C\\C=C\\[C@H](C)[C@H](O)[C@@H](C)[C@@H](O)[C@@H](C)[C@H](OC(C)=O)[C@@H]1C", "test": "transporter uptake, inhibitor", "system": "HEK293 expressing SLCO1B1", "conditions": "concentration not given, with: [3H]estrone-3-sulfate 20 nM", "endpoint": "duration of inhibition after washout", "result": "≥ 40 min"}
{"Structure (SMILES)": "CC(=O)c1cc(C(=O)N[C@@H](C)Cn2ccc(-c3ccc(C#N)c(Cl)c3)n2)[nH]n1", "test": "transporter uptake, inhibitor", "endpoint": "IC50", "result": "> 10000 nM"}
{"Structure (SMILES)": "O=C(O[C@H]1[C@@H]2C=CO[C@@H](O[C@@H]3O[C@H](CO)[C@@H](O)[C@H](O)[C@H]3O)[C@@H]2[C@@]2(CO)O[C@@H]12)c1ccc(O)cc1", "test": "uptake, substrate", "system": "HEK293 overexpressing SLCO1B1", "conditions": "5 min", "endpoint": "intrinsic clearance", "result": "0.035 µL/min"}
{"Structure (SMILES)": "Cc1ccccc1C(=O)Nc1ccc(C(=O)Nc2ccc(Cl)cc2C(=O)CCC(=O)O)c(C)c1", "test": "estradiol 17β-glucuronide transport", "system": "HEK293 overexpressing OATP1B1", "endpoint": "IC50", "result": "255 nM"}
{"Structure (SMILES)": "CC#CC(=O)N1CCC[C@H]1c1nc(-c2ccc(C(=O)Nc3ccccn3)cc2)c2c(N)nccn12", "test": "8-fluorescein-cAMP transport", "system": "HEK293 overexpressing SLCO1B1", "conditions": "10 µM, 30 min, with: 8-fluorescein-cAMP 25 µM", "scale": "reference: DMSO", "endpoint": "uptake", "result": "no effect"}
{"Structure (SMILES)": "O=C(O)c1cc2cc(O)ccc2n1Cc1ccc(Cl)c(C(F)(F)F)c1", "test": "estradiol 17β-glucuronide uptake, inhibitor", "system": "HEK293 expressing OATP1B1", "conditions": "3 µM, with: [3H]-estradiol 17β-glucuronide", "scale": "reference: DMSO control", "endpoint": "remaining activity", "result": "1%"}
{"Structure (SMILES)": "C=CC(=O)N1CCC([C@@H]2CCNc3c(C(N)=O)c(-c4ccc(Oc5ccccc5)cc4)nn32)CC1", "test": "transport, measured: estradiol-17β-glucuronide uptake", "system": "HEK293 transfected", "conditions": "0.05 µM", "scale": "reference: vehicle", "endpoint": "remaining activity", "result": "94.8 ± 2.3%"}
{"Structure (SMILES)": "O=C(/C=C/c1ccc(O)c2c1[C@H](C(=O)O[C@H](Cc1ccc(O)c(O)c1)C(=O)O)[C@@H](c1ccc(O)c(O)c1)O2)O[C@H](Cc1ccc(O)c(O)c1)C(=O)O", "test": "transporter uptake, inhibitor", "system": "HEK293", "conditions": "100 µM", "endpoint": "inhibition", "result": "> 50%"}
